# Published values pooled from the literature.
# Chains of the proteins cited; added tags and fusions are not shown.
# UniProt P41145, whole entry: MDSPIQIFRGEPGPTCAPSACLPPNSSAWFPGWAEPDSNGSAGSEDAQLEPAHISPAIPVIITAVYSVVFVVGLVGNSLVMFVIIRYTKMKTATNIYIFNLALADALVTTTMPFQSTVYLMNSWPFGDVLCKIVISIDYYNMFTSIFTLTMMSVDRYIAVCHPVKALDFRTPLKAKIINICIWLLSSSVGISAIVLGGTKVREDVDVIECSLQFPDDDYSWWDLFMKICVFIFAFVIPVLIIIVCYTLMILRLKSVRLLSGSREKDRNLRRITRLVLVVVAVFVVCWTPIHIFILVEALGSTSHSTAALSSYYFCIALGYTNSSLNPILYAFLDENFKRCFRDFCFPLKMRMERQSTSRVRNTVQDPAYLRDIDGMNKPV
# UniProt Q00960, whole entry, looked up: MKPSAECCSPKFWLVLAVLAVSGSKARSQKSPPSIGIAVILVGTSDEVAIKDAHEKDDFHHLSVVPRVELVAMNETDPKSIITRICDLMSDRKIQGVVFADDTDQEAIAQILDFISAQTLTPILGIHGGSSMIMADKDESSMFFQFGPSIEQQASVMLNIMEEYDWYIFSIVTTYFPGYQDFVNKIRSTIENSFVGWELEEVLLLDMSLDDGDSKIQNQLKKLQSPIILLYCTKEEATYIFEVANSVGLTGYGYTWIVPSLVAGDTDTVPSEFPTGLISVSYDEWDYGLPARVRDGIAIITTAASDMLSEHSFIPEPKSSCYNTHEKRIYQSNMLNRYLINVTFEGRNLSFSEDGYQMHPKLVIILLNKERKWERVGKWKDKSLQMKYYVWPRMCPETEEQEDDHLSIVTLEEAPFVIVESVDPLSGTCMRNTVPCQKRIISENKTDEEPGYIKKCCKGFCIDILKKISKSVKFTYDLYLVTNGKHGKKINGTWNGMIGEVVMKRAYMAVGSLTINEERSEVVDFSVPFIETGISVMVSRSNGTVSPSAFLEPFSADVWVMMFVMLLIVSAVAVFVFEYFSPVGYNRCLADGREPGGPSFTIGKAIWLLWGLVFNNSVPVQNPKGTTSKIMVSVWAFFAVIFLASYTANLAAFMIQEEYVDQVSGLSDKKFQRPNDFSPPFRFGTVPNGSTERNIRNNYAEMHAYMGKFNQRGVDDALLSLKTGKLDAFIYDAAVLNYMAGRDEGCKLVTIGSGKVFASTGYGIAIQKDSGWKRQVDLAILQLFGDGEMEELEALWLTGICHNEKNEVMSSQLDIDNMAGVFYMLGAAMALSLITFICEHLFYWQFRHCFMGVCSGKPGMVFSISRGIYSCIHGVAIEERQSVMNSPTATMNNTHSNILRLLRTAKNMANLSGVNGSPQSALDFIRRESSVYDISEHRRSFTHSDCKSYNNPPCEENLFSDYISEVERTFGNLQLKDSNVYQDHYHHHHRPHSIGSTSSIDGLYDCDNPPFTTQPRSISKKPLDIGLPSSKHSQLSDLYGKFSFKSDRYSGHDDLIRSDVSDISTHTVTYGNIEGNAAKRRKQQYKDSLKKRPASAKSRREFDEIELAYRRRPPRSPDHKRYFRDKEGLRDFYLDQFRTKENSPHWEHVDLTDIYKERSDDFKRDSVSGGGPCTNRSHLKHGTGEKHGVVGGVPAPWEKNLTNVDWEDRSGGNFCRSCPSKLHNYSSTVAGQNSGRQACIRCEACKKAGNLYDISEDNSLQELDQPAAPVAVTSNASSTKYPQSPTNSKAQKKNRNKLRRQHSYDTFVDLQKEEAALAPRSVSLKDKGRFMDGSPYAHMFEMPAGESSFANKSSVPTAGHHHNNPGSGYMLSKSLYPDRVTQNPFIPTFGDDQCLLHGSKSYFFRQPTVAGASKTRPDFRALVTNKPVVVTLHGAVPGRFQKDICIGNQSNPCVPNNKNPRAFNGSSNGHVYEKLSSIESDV
# UniProt P28566, whole entry: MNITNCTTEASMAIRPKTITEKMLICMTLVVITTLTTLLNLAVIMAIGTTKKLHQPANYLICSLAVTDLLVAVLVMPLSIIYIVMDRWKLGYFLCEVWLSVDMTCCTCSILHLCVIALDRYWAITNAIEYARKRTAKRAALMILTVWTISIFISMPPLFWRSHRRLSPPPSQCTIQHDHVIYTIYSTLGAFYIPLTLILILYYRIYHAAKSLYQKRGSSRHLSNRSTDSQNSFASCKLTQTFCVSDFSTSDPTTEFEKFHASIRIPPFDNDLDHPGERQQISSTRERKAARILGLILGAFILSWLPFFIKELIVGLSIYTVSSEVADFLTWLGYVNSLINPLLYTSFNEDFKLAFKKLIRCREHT
# UniProt P41144, whole entry: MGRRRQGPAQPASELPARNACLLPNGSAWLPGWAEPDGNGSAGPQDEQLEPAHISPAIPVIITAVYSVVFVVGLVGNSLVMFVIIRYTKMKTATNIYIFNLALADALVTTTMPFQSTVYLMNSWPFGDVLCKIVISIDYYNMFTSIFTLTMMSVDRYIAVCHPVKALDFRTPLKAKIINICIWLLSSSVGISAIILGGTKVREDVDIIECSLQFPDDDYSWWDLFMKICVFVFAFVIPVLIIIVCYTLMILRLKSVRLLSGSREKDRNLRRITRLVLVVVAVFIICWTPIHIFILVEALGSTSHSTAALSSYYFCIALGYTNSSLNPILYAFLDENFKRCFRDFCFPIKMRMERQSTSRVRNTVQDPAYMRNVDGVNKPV
# Lines come from different studies, so protocols differ. ± gives the spread as reported.
Molecule,tested on,test,system,setting,scale,endpoint,value
CCC(C)C(CC)C(N)=O (stereo not drawn),,secondarily generalized seizures,hippocampal kindled rat,,,ED50,~40 mg/kg
CC(C)Oc1ccc2nc3ccc(=O)cc-3oc2c1,Mycobacterium tuberculosis,,mc2 6206 clofazimine-resistant fbiC mutant,7 days,,MIC90,39 µM
C=C[C@@H]1[C@H]2CCC[C@]1(c1cccc(O)c1)CCN2CCc1ccccc1,,,human liver microsomes 0.5 mg/mL,"1 µM, pH 7.4, with: NADPH",,half-life,8 min
CCCCCCC1c2ccc(O)cc2Oc2cc(O)ccc21,Pseudomonas aeruginosa,,MDR clinical isolate,with: NAB7061 4 µg/mL,,MIC,2.8 mg/L
CC1CCC2(CC1)OOCOCOOC1(CCC(C)CC1)OO2 (stereo not drawn),K562,"cytotoxicity, 7-AAD flow cytometry",,,,IC50,8.12 ± 0.34 µM
Cn1c(COc2ccc3nc4ccc(=O)cc-4oc3c2)cnc1[N+](=O)[O-],Mycobacterium tuberculosis,,mc2 6206 PA-824-resistant ddn mutant,7 days,,MIC90,> 256 µM
fluorouracil,RKO,"cell viability, MTS",,,,IC50,2.09 ± 0.87 µM
CCC(C)C1NC(=O)/C(=C(/C)O)C1=O (stereo not drawn),plasma membrane H+-ATPase (Spinacia oleracea),ATP hydrolysis,plasma membrane fraction,1.0 µM,,Vmax,219 nmol Pi/mg/min
Cc1cc(C(=O)O)ccc1-c1c2ccc(=O)cc-2oc2cc(OCc3ccc([N+](=O)[O-])o3)ccc12,Mycobacterium tuberculosis,,mc2 6206 bedaquiline-resistant MmpL5 regulator mutant,7 days,,MIC90,24 µM
c1ccc(Nc2cccc3ccccc23)cc1,Manis javanica OBP3 Y117F,"binding, fluorescence binding",,with: 1-NPN probe,,Kd,0.48 ± 0.11 µM
CCN1CCN(Cc2ccc(NC(=O)c3ccc(C)c(/C=C/c4cnc5[nH]ccc5c4OC)c3)cc2C(F)(F)F)CC1,ITK-SYK fusion,"kinase-CDC37 interaction, cell-based kinome screen",,5 µM,baseline: vehicle,log2 fold change,-0.138
CC(=O)OCOc1ccc2nc3ccc(=O)cc-3oc2c1,Mycobacterium tuberculosis,,mc2 6206 bedaquiline-resistant MmpL5 regulator mutant,7 days,,MIC90,21 µM
CCOc1ccc2cc(-c3nn(CC4CCN(C)CC4)c4ncnc(N)c34)ccc2n1,,,,"concentration not given, human",,half-life,> 120 min
CSCC[C@@H](C=O)NC(=O)[C@H](CC(C)C)NC(=O)[C@H](CC(C)C)NC(C)=O,BEAS-2B,neutral red uptake,,48 h,,CC50,> 100 µM
O=C(C1CC1)N1CC2CC(C1)N2,,forepaw asymmetry test,"rat, unilateral 6-OHDA lesion",,,forelimb use asymmetry,no effect
NNC(=O)c1ccncc1,Mycobacterium bovis,,"BCG Tac^r10.2, thyA W98R missense",TA-C-resistant thyA mutant,,MIC50,0.4 µM
O=C(Nc1ccccc1)c1cc([N+](=O)[O-])ccc1Cl,Salmonella typhimurium,Ames plate incorporation,TA98,"15 µg/plate, without metabolic activation",,revertants,29 ± 2 revertants/plate
CC[C@@](O)(c1ccccc1)[C@H]1C[C@@]23C=C[C@]1(OC)[C@@H]1Oc4c(O)ccc5c4[C@@]12CCN(CC1CC1)[C@@H]3C5,"OPRK1 (Homo sapiens, UniProt P41145)","G-protein activation, agonist",,,,EC50,0.0566 ± 0.011 µM
COc1ccc(OC[C@H]2c3cccn3CC(=O)N2Cc2cccc(F)c2)cc1,"Glutamate receptor ionotropic, NMDA 2B, with GluN1 (Grin2b, Rattus norvegicus, UniProt Q00960)","ion current, whole-cell patch clamp","HEK293T cells, transfected","10 µM, with: glutamate for 10 ms",baseline: baseline,charge transfer,1.4 ± 0.3 fold
C[C@H](Cc1ccc(O)c(O)c1)[C@@H](C)Cc1ccc(O)c(O)c1,,,propylene glycol,"24 h, room temperature",,solubility,15 mg/mL
CCCN1CCN(c2ccc3c(c2)C2CC3CCN2C(=O)OCc2ccccc2)CC1 (stereo not drawn),"HTR1E (Homo sapiens, UniProt P28566)","binding, radioligand binding",,,,Ki,7.74 µM
CCOC(=O)OCOc1c(-c2ccc(Oc3ccc(OC(F)(F)F)cc3)cc2)c(C)nc2cc(OC)c(Cl)cc12,Plasmodium yoelii,parasitemia suppression,mouse,"oral, 4 days, PEG-400 vehicle",,ED90,0.05 mg/kg/day
CO[C@]12C=C[C@@]3(C[C@@H]1[C@@H](O)c1ccccc1)[C@H]1Cc4ccc(O)c5c4[C@@]3(CCN1CC1CC1)[C@H]2O5,"OPRK1 (Cavia porcellus, UniProt P41144)","binding, radioligand displacement",guinea pig brain membranes,with: [3H]U-69593,,Ki,0.0015 ± 0.00095 µM
CC#C/C(=N\OC[C@H]1COCCN1)c1ccc2ncnc(Nc3ccc(OCc4cccc(F)c4)c(Cl)c3)c2c1,,tumour growth,"A498, nude mouse subcutaneous xenograft","oral, 21 days daily",,ED50,25.7 mg/kg
CCc1nc(N)nc(N)c1C#CCc1cc(OC)cc(-c2ccc(C(=O)O)cc2)c1,Staphylococcus aureus,,MRSA isolate HH 1184,,,MIC,5 mg/L
CSc1nc(Cl)cc(Sc2nnc(-c3cc(C(F)(F)F)cc(C(F)(F)F)c3)[nH]2)n1,Klebsiella spp.,,,,,MIC,> 590 mg/L
O=c1ccc2nc3ccc(OCc4ccc([N+](=O)[O-])s4)cc3oc-2c1,Mycobacterium tuberculosis,,mc2 6206 clofazimine-resistant fbiC mutant,7 days,,MIC90,213 µM
CCN(CC)C(=O)Oc1ccc(C(=O)Nc2cccc3cc[nH]c23)cc1,,"NMDA receptor EPSC, inhibitor, whole-cell patch clamp","CA1 interneurons, mouse, hippocampal slices",10 µM,baseline: control,charge transfer,63 ± 9.7%
CC(C)Cc1nnc2c(C(=O)NC3c4ccccc4-c4ccccc43)cccn12,"RNA polymerase β′ D622G, Escherichia coli","enzyme activity, fluorescence",,lacUV5 promoter,baseline: mutant over wild type,IC50 ratio,6
Cc1ccc(S(=O)(=O)N(C)CC(=O)N(Cc2ccc(C3CCCCC3)cc2)c2ccc(C(=O)O)c(O)c2)cc1,"MDA-MB-231, PANC-1, NIH3T3/v-Src","immunoblotting, measured: c-Myc, Bcl-xL, VEGF, survivin, MMP-9",,"50 µM, 24 h",,protein level,decreased

# Excerpt of the above:
Molecule,tested on,test,system,setting,scale,endpoint,value
Cc1ccc(S(=O)(=O)N(C)CC(=O)N(Cc2ccc(C3CCCCC3)cc2)c2ccc(C(=O)O)c(O)c2)cc1,"MDA-MB-231, PANC-1, NIH3T3/v-Src","immunoblotting, measured: c-Myc, Bcl-xL, VEGF, survivin, MMP-9",,"50 µM, 24 h",,protein level,decreased
CC1CCC2(CC1)OOCOCOOC1(CCC(C)CC1)OO2 (stereo not drawn),K562,"cytotoxicity, 7-AAD flow cytometry",,,,IC50,8.12 ± 0.34 µM
CCOC(=O)OCOc1c(-c2ccc(Oc3ccc(OC(F)(F)F)cc3)cc2)c(C)nc2cc(OC)c(Cl)cc12,Plasmodium yoelii,parasitemia suppression,mouse,"oral, 4 days, PEG-400 vehicle",,ED90,0.05 mg/kg/day
CO[C@]12C=C[C@@]3(C[C@@H]1[C@@H](O)c1ccccc1)[C@H]1Cc4ccc(O)c5c4[C@@]3(CCN1CC1CC1)[C@H]2O5,"OPRK1 (Cavia porcellus, UniProt P41144)","binding, radioligand displacement",guinea pig brain membranes,with: [3H]U-69593,,Ki,0.0015 ± 0.00095 µM
